Experimental data collected from several papers.
Numbered parts are unrelated; each lists some results of a single study. Substitutions count along the parent as printed.

Set 1
Target: Histone acetyltransferase KAT6A, winged helix 1, GST fusion (KAT6A, Homo sapiens, UniProt Q92794, residues 1-85)
Method: protein binding microarray
Form: double-stranded DNA, one strand shown
Matrix: in vitro
Concentration: not given
Setting: 8-mer, flanks averaged, mean of 2 arrays, mostly near background
Reference: not given
Direction: higher = stronger binding
Measurement: E-score
Construct (chain): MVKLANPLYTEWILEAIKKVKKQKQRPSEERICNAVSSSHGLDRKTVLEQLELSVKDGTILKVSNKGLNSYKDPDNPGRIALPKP
Sequence = ATCGTTTA; value = -0.032
Sequence = GAATTATC; value = -0.154
Sequence = CCATGCCG; value = 0.223
Sequence = AGTGATAC; value = -0.0367
Sequence = ATGTAACA; value = -0.137
Sequence = CACCCAGG; value = -0.207
Sequence = ACAACATG; value = -0.0814
Sequence = GGACGACC; value = 0.0281
Sequence = ACGTGTTC; value = -0.125
Sequence = CGCACCCA; value = 0.0915
Sequence = AGATTCTC; value = -0.042
Sequence = TGTGTGAA; value = -0.171
Sequence = CCGTACCA; value = 0.235
Sequence = AATCGAAT; value = -0.019
Sequence = AAGTTAGA; value = -0.145
Sequence = ATCCCGCA; value = 0.166
Sequence = CCAGGAGC; value = -0.0627
Sequence = AGATGACA; value = -0.184
Sequence = AAGAGGTG; value = -0.104
Sequence = CCTGAAGA; value = -0.0811
Sequence = GAGACTGA; value = -0.168
Sequence = GCGCGGCC; value = 0.454
Sequence = AACGGCGA; value = 0.325
Sequence = CTATATAA; value = -0.0992
Sequence = AAAAGTGC; value = -0.0486

Set 2
Target: RNA binding protein fox-1 homolog 2, RRM domain, GST-SBP tag (RBFOX2, Homo sapiens, UniProt O43251-10, residues 100-194)
Method: RNA Bind-n-Seq
Form: RNA
Matrix: in vitro
Concentration: 365 nM
Setting: natural RNA segment, single round, ends assumed
Reference: no-protein control
Direction: higher = stronger binding
Measurement: RBNS enrichment (R)
All sequences stand within: GGGAGUUCUACAGUCCGACGAUC … UGGAAUUCUCGGGUGCCAA
Target sequence (chain): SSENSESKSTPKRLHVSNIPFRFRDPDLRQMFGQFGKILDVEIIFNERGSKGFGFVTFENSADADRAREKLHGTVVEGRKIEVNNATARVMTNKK
Sequence = CAAGUUUUUCUCUGGGGUCCUCUUUCAAGGAUGUCCACGGUACCUUCCUCCUGAAACUUGAGGAAGUCUUUUGUCUUCCAGCUGCUCAGGGUUCUCUGGUCCAAGACCCU; value = 0.234
Sequence = ACCUCUGUCAUUCAGGCAUUGGGGUACAUCCUGAUAAGUCGUGUCAGAACUGCCAAUUUCAGGACUGAGAUGUGUUUUUAAAAAACAAAUCCUUAUAAACUCCACUUUGU; value = 0.369
Sequence = CCUGUGUCUCACUCUGUCUUCUUGUCACUUGAUGUGCAUUUGCUGUUGUUCUUUCGUUUCUGUCUAAAUGUCAGUGUGUUCAAACCCCCAGAGGGUUCUGUUUUUCCCAU; value = 0.773
Sequence = UUACCCUGUUACUCAGCCACGCCGUGUGUAGGCUUAGCCUCAGGUGGCAGAUGUUUGAGGAAAGGAAUUAUGCCAGGAAGGUGGGACCGGGUUAUGGUCGGGUUUCUAUU; value = 0.296
Sequence = UCUAUCCAUAUGCUAUCGAGUAAUUAUAGAAGCAAUUAACACUCACUGUUCUUGCCUCUGGUGAGAUAUUUUUCUCCUGUAGUUAACAGAUAUUGGGUGGGGGGAGGGGA; value = 0.618
Sequence = UUUGUGGUGGCUAAAGGAUCCAGUCCCCUUGGGUCUGUACAUCCCCUAUCCCAUACACGGGGCAGGAGGACGCCACAGACUGGACGCUGAGCGGCCCAGCUCUGGGGGGC; value = 0.242
Sequence = GGGGCCGGCAGGCACAGGGAGGAGGUACAGAAGCCGGCAACGCUUGCUAUUUAUUUUACAAACUGGACUGGCUCAGGCAGGGCCACGGCUGGGCUCCAGCUGCCGGCCCA; value = 0.645
Sequence = GAUUCUGACUUUUUUAAAAAUUCUUUUCUAAUUAUUGUAAAAAGUAUAUUAUAUCUUAAGUCAGUUUCCGUGGCAUCUACUGAAUAAAAAUUCAGCAGAUCUCCUUUCUA; value = 0.435

Set 3
Target: CCND1, cyclin fold, Cln2 fusion (human)
Method: yeast growth competition, sequencing
Matrix: yeast
Setting: strong parent motif
Reference: not given
Direction: higher = stronger binding
Measurement: normalised enrichment score
Starting sequence: PKN2 docking peptide (human); VSAVRKLDFSDTM
Variant = D11S; value = 4.87
Variant = D11Y; value = 4.49
Variant = D11P; value = 4.93
Variant = T12F; value = 5.82
Variant = K6L; value = 2.98
Variant = S2R; value = 5.08
Variant = K6A; value = 3.35
Variant = S10R; value = 4.27
Variant = S10H; value = 3.98
Variant = K6C; value = 4.72
Variant = T12G; value = 5.28
Variant = V4Q; value = 4.5
Variant = K6G; value = 0.803
Variant = D11R; value = 3.73
Variant = D8L; value = 0.672
Variant = F9C; value = 0.054
Variant = V4P; value = 0.543
Variant = R5D; value = 0.862
Variant = S2T; value = 5.31
Variant = F9N; value = -0.145
Variant = L7H; value = 0.1
Variant = V4M; value = 4.66
Variant = F9S; value = 0.106
Variant = R5Y; value = 1.27
Variant = S2Y; value = 3.03

Set 4
Target: Interferon regulatory factor 3, full length, phosphomimetic (IRF3, Homo sapiens, UniProt Q14653, residues 1-427, S386D/S396D/S398D/S402D/T404D/S405D)
Method: protein-binding microarray
Form: double-stranded DNA, one strand shown
Matrix: in vitro
Concentration: 2540 nM top
Setting: 60-bp whole probe
Added: salmon DNA 0.4 mg/ml
Reference: random background probes
Direction: higher = stronger binding
Measurement: fitted relative affinity
All sequences stand within: GCCTAGCAC … GTCTTGATTCGCTTGACGCTGCTG
Construct (chain): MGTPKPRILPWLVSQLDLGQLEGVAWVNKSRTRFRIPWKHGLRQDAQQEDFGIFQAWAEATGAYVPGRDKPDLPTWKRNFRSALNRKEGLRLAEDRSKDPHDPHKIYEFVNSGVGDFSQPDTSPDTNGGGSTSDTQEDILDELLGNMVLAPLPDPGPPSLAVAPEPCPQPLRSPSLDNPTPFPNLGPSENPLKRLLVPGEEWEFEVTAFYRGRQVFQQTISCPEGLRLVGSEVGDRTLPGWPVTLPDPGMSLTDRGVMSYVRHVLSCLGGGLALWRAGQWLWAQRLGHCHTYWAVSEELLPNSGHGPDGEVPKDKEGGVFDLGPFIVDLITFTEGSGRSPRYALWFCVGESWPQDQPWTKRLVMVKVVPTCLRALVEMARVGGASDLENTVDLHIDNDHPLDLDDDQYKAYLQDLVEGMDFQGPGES
Sequence = GACGGACTGCTTCTCCTGAGGTGCTAG; value = -0.489 z-score
Sequence = TTAGGTTTCGCTCTCGGTTAGTGCTAG; value = 6.85 z-score
Sequence = GACGGACTGGGTCACGGGACGTGCTAG; value = -0.704 z-score
Sequence = TTAGGTATCGACTATAGGTTAGTGCTA; value = 0.17 z-score
Sequence = GACGGACTGGGACTAGGGACGTGCTAG; value = -0.78 z-score
Sequence = GAAGGTTTCCTACTGCTGACGTGCTAG; value = 5.05 z-score
Sequence = TTAGGTATTGGACTGGGTTAGTGCTAG; value = -0.583 z-score
Sequence = GACGGTTTCGGGTATTGGGACGTGCTA; value = 4.34 z-score
Sequence = TTATGTTCCGGTTTCGGTTAGTGCTAG; value = 7.2 z-score
Sequence = AACGGTATCCTTCTCCTGACGTGCTAG; value = 6.36 z-score
Sequence = TCTTATATACCTGTATATCTGTGCTAG; value = 0.481 z-score
Sequence = TCAACTTCTGTTTTTGCACTGTGCTAG; value = 0.55 z-score
Sequence = GACGATCTAAGTATCGAGACGTGCTAG; value = 0.455 z-score
Sequence = GACGGTTTCGGTTCCGGGGCGTGCTAG; value = 10.4 z-score
Sequence = CTGTGTTTCCTTGTACGTCGGTGCTAG; value = 3.48 z-score
Sequence = TTAGGTCGCGGTTTCGGTTAGTGCTAG; value = 4.64 z-score
Sequence = GACGGTTTCGGTATCGGAACGTGCTAG; value = 8.31 z-score
Sequence = TTAGGACTTGGTCTCGGTTAGTGCTAG; value = -0.351 z-score
Sequence = TCCCAAGTCTTGTTTTACAATGTGCTA; value = 0.564 z-score
